Experimental data from different studies.
A part holds a random share of what one study measured.

Block 1 — technique: protein-binding microarray; molecule type: double-stranded DNA, one strand shown; matrix: in vitro; concentration: 0.8 µM; setting: whole 60-bp probe, no competitor; direction: higher = stronger binding; measurement: fluorescence intensity; shared flanks, not repeated: … GTCTTGATTCGCTTGACGCTGCTG
Target: Centromere-binding protein 1, full length, N-terminal tag (CBF1, Saccharomyces cerevisiae, UniProt P17106, residues 1-351)
Chain of UniProt P17106 (whole entry, looked up): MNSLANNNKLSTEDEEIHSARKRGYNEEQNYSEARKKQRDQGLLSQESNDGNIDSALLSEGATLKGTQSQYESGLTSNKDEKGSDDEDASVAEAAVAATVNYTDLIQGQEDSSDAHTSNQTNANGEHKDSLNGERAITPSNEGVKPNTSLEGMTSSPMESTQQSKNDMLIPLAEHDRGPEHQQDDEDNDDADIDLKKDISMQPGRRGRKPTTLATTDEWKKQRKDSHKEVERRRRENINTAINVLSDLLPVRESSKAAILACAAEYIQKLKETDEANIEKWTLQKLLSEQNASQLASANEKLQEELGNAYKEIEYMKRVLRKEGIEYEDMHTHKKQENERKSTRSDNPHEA
CCTAACTACTATACTGGTCACGTATAGCTTCGTACA: 1320 a.u.
TGTACGAAGCTATATCACCAGGGTATAGTAGTTAGG: 508 a.u.
GAATTTCGTATAGTCTGTGTGACCCTATCTGTTTAG: 531 a.u.
CTAGATATAATCAGCATCATGTTTTTTAAGCGATTC: 535 a.u.
CTATTTTTTTAGCGTCACGTTAATCAGCCCAATTTC: 1450 a.u.
CTAAACATTTTCTAATAGGTGACATTACAAAATTTC: 543 a.u.
CTATTCTTGTTGAGAAACGTGGTTGTATCCTTTTTC: 600 a.u.
GAAATAAAAGCAACCCACGTAACAAATTGCGAATAG: 516 a.u.
GAATTAACTTTATTGCACGTTATTGCTTCCACATAG: 647 a.u.
CTATTGAGTCCACTGCATGTGGAAAACAGAGTTTTC: 558 a.u.
GAATTTTCCGAAAGTCATGACACAAGGGAAGGATAG: 643 a.u.
CTATTCCAGCCTTTCCACGTTTTTGTTATCTAATTC: 564 a.u.
TGTACGAAGCTATATCACGTGGCTATAGTAGTTAGG: 10500 a.u.
TGTACGAAGCTATTGCACGGGTCTATAGTAGTTAGG: 581 a.u.
CTAATTCTGCTTGACCACGAATGTACTGCTAATTTC: 538 a.u.
GAATAATATTGGCATGATGCGAAATTGGACGTATAG: 607 a.u.
GAAGACAGAGATGTGCATGTTGACAACGCAGGCTAG: 496 a.u.
GAAATATAATATTTGCACGGGTTCTTTTTTGTGTAG: 1010 a.u.
GAATCCCAAGCAATAAACGTGAAATCTGTTTTGTAG: 558 a.u.
GAAGAAGGAGAGAATCACGCAAAAATCACATTATAG: 539 a.u.
TGTACGAAGCTATATCACGTGCGTATAGTAGTTAGG: 14200 a.u.
CTACAAAAGGTTAGTAACATCAATATATCGCGGTTC: 534 a.u.
GAAGATATAGATGTGCACATGTCGTTTTTTGAGTAG: 913 a.u.
CTAATGACACTATTAAACGTGACGGTGCTGCTGTTC: 890 a.u.
GAAGGTATTGTAGGTGGTGCGATGCTTATTGCCTAG: 523 a.u.

Block 2 — technique: RNA Bind-n-Seq; molecule type: RNA; matrix: in vitro; concentration: 1 µM; setting: whole 134-nt RNA, ends assumed; together with: 150 mM KCl; reference: input library; direction: higher = stronger binding; measurement: log2 enrichment
Target: Ras GTPase-activating protein-binding protein 1, RRM domain (G3BP1, Homo sapiens, UniProt Q13283)
Chain of UniProt Q13283 (whole entry, looked up): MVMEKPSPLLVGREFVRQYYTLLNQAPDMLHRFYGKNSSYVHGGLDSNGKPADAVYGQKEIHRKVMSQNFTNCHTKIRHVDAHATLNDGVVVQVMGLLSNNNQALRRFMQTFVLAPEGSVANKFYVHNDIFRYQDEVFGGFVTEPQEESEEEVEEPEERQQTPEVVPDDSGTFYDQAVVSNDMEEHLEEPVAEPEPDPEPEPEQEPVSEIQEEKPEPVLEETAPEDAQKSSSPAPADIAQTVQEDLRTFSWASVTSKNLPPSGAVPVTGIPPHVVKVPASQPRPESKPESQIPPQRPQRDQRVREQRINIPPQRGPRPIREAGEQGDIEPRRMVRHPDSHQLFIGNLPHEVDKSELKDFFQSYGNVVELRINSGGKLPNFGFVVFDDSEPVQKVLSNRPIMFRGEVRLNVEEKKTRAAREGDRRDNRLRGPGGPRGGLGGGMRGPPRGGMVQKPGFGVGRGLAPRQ
Shared flanks, not repeated: GGGAGUUCUACAGUCCGACGAUC … UGGAAUUCUCGGGUGUCAAGG
UUCCGCGACUACCGGCGUGUGCACAAGCCGCCCAAGGUGCAGGAGAAGUGCCAGCUGGAGAUCAACUUCAACACGCUGCAGACCAAGCUG: -0.409
CCUCAAGUCCUGUGCUACACAUCGUAUGUACCGAAUCGGCCGGCCGGGCCGGAAAGUAUUAUGUUACGCCGUUCGGAUCUGCACUUCCAG: -0.521
AAGUCCUGUGCUACACAUCGUAUGUACCGAAUCGGGUUUUUGGGAGGGAAAAAGGGAAAGUAUUAUGUUACGCCGUUCGGAUCUGCACUU: 0.278
UCAAGUCCUGUGCUACACAUCGUAUGUACCGAAUCGGGCCCGGGCCCGGCCCGGAAAGUAUUAUGUUACGCCGUUCGGAUCUGCACUUCC: -0.498
GUCCUGUGCUACACAUCGUAUGUACCGAAUCGGGGAAAGGGGUUUUUGGGGUUUGGGGAAAGUAUUAUGUUACGCCGUUCGGAUCUGCAC: 0.997
AAGUCCUGUGCUACACAUCGUAUGUACCGAAUCGGAAAAAAAGGAGGAAAAAAAGGAAAGUAUUAUGUUACGCCGUUCGGAUCUGCACUU: -0.0682
CCUGUGCUACACAUCGUAUGUACCGAAUCGGGGAAAAAGGGGUUUUUUUGGGGAAAGGGGAAAGUAUUAUGUUACGCCGUUCGGAUCUGC: 0.737
CCUGUGCUACACAUCGUAUGUACCGAAUCGGGGUUUUUUGGGGUUUUUUGGUUUUUUGGGGAAAGUAUUAUGUUACGCCGUUCGGAUCUG: -0.223
GUCCUGUGCUACACAUCGUAUGUACCGAAUCGGAAAAAGGGAAAAAGGGGAAAAAGGGAAAGUAUUAUGUUACGCCGUUCGGAUCUGCAC: 0.0225
AGUCCUGUGCUACACAUCGUAUGUACCGAAUCGGUUUUUGGGGUUUUUGGUUUUUGGAAAGUAUUAUGUUACGCCGUUCGGAUCUGCACU: -0.0893
AGUCCUGUGCUACACAUCGUAUGUACCGAAUCAAAUUUAAACCCCCCCAAAUUUAAAAAAGUAUUAUGUUACGCCGUUCGGAUCUGCACU: -0.127
AAGUCCUGUGCUACACAUCGUAUGUACCGAAUCGGGAAAAAAAGGGUGGGAAAGGGAAAGUAUUAUGUUACGCCGUUCGGAUCUGCACUU: 0.749
UCAAGUCCUGUGCUACACAUCGUAUGUACCGAAUCGGGUUUGGGAAAGGGAGGGAAAGUAUUAUGUUACGCCGUUCGGAUCUGCACUUCC: 0.744
CCUCAAGUCCUGUGCUACACAUCGUAUGUACCGAAUCGGUUGGGUUGGUUGGAAAGUAUUAUGUUACGCCGUUCGGAUCUGCACUUCCAG: -0.245

Block 3 — technique: RNA Bind-n-Seq; molecule type: RNA; matrix: in vitro; concentration: 365 nM; reference: no-protein control; direction: higher = stronger binding; measurement: RBNS enrichment (R)
Target: RNA binding protein fox-1 homolog 2, RRM domain, GST-SBP tag (RBFOX2, Homo sapiens, UniProt O43251-10, residues 100-194)
Setting: natural RNA segment, single round, ends assumed
Shared flanks, not repeated: GGGAGUUCUACAGUCCGACGAUC … UGGAAUUCUCGGGUGCCAA
Construct (chain): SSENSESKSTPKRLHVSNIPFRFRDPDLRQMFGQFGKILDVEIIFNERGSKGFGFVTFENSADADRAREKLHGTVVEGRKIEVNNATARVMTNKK
AACUGAAGAGAGUGGAGAGAAUAAAGAAGUGAACUUUCAUUCAUGUCUGCUACUUUGACCUCAUAAAGAAAUCUGCAACACAGAUGAAACCAGUCUGUGUGGCCAAGCUG: 0.316
UUCGGGUGAAAUGGCAAGUUGUACAGCCCCCUCGGGCUUGUUUUGUGCUCUCCUGUCACAAAUGCUGCACUGUUGAUUCUUUCAAAACAAAACGAAACAAACCUCUCCAG: 0.513
AGCCUUCAGAUGCCCAUCGUGUGAGAGGCGCUGCCUGUUGAUGAAGUGUGUGACCUUUUCUCCUGCUGAGUGGGAGAUCCCAGGGUCCCACACGCCUCACCUCGGUGAGU: 0.272
CUGUAAAGGCUGCAUCCAUGUUAGUUGGCACAUAAAGGCAAUUAAUUGUAGAAGUUGAAACAUGAUCGCUAUAUUUCAAUGUUUAUUCCCGUUCAACGUACUGCCUCUAA: 2.12
UAUACCUAUUACAUUUCCAGGCAGUAUCCCUAAGAUGAGAUCCUGGAGAAAGGACUAGGGGAAGUAUCUUUCUGGAUGCUUGUGGUCCCAGAAGGGUACUUUCUGUGUCA: 1.89
GUUUGAAUGCAGAUUUUUAUCCACAGAUAGUUGUAGUGUUUAGACAUGACAGGACCUAUCGUUGAGGUUUCUAAGACUUACUAUGGGCUGUAAACCUGUUUUUUAAAACU: 1.09
AAUACAUAAAGAUAAAUUUAUUUUCACACAGUCCACAAGGGGUAUAUCUUGUAGUUUUCAGAAAAGCCUUUGGAAAUCUGGAUCAGAAAAUAGAUACCAUGGUUUGUGCA: 1.06
CUGAGUUUAGAAGACCUAUUACAAAAAGUGAAGAACUAGACUGUGGGAAAAUAAAUGGCUUUUGACUCUAUUGUGUAAGGUACUUACUGGGGAUUGGAUUAAAGUAAAUA: 0.74
AUAGAAAAAGAAAUGGCCUCAGUUUGAUCUCGUUCAGAAUGACCCAGAUUGUUUCUGCUUUGGGUGCAGCUGUUUAGUUCAGAGUUAUAUUACAGAGAAUUAUUUUCUGA: 0.894
CUCAGUCCUUGUAUUUCUCUUUUUCACUCUCUCUUCCACCCCAAGAUGGAAUCUUGGGGACAGGAGGGAGAGGGUUGGUAACUACUGUGAGCAAGUCCCCCAAGCCCUGA: 0.279
GCAAAGGUUAACAUAUAAUGCCAAAUUUUUCCAUUCUGGUGCCCAUAUAGAUGACUUAAUUACAUUCUUGAUUGGUCAUGUGCAGUCUUCUGAAGAUGAGCUAACAAUGC: 0.447
GUCCUUCUUGAUUGCAGUGCAGUACUGGCAUUUCUGAAUGGAUGUAAGUGGAGUAUUUUAGUCUAAAGGCUUUUCAAAUUACUUGAAUUUUUUUAAAAAUUGAGGAGCUU: 0.438

Block 4 — technique: protein-binding microarray; molecule type: double-stranded DNA, one strand shown; matrix: in vitro; concentration: not given; direction: higher = stronger binding; measurement: E-score
Target: Protein max, full length (MAX, Homo sapiens, UniProt P61244-2, residues 1-151)
Setting: k-mer, scored over probes, only values ≥0.25
CACCTGCG: 0.369
CCCTCCCC: 0.278
CGGGCACG: 0.371
ACGCTGCT: 0.284
CGTGTTGC: 0.355
CGTGGCTA: 0.402
CCCGCCCC: 0.313
ACAACATG: 0.355
GGTGACAC: 0.265
CGTGTCCC: 0.371
ATGGCGTG: 0.371
CGCCCACA: 0.277
CATGTTAG: 0.332
CCCGTCCC: 0.26
GTGGCAAA: 0.266
ACCACCTG: 0.424
GCATGATA: 0.349
ACACGTGA: 0.496
ACGCTGGC: 0.297
CATGAGAC: 0.292
CATGAATA: 0.267
AGTGTGAT: 0.289
ACCCGCGT: 0.262

Block 5 — technique: protein binding microarray; molecule type: double-stranded DNA, one strand shown; matrix: in vitro; concentration: not given; reference: not given; direction: higher = stronger binding; measurement: E-score
Target: Histone acetyltransferase KAT6A, winged helix 2, GST fusion (KAT6A, Homo sapiens, UniProt Q92794, residues 85-181)
Setting: 8-mer, flanks averaged, mean of 2 arrays, mostly near background
Residues (chain): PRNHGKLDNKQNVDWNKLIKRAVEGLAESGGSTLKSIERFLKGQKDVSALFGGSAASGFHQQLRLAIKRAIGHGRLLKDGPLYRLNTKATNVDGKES
CTCGTTCC: -0.0647
AGAAGTCC: -0.0836
CTAATAGA: -0.00292
ACCGGGCG: 0.136
TTAATGAA: 0.222
ATACATAC: -0.246
AATCGTCG: -0.0435
ACGGGGAC: 0.0305
CCATGCGC: 0.0407
ATTCCGCA: 0.0618
CACCCTTA: -0.029
ACCAAGAG: 0.0105
CGGGTTGA: 0.0178
CTAGGAAG: -0.0717
CTTCTTTA: -0.0856
CACCACAA: 0.0667
CTTAGGAA: 0.0304
CCACATCA: -0.00882
ATAATCGA: 0.1
ATCTCATA: 0.14
ATCTTAAA: 0.112

Some of these lines once more (block 2):
UCAAGUCCUGUGCUACACAUCGUAUGUACCGAAUCGGGCCCGGGCCCGGCCCGGAAAGUAUUAUGUUACGCCGUUCGGAUCUGCACUUCC: -0.498
GUCCUGUGCUACACAUCGUAUGUACCGAAUCGGGGAAAGGGGUUUUUGGGGUUUGGGGAAAGUAUUAUGUUACGCCGUUCGGAUCUGCAC: 0.997
AAGUCCUGUGCUACACAUCGUAUGUACCGAAUCGGAAAAAAAGGAGGAAAAAAAGGAAAGUAUUAUGUUACGCCGUUCGGAUCUGCACUU: -0.0682
CCUGUGCUACACAUCGUAUGUACCGAAUCGGGGAAAAAGGGGUUUUUUUGGGGAAAGGGGAAAGUAUUAUGUUACGCCGUUCGGAUCUGC: 0.737
CCUGUGCUACACAUCGUAUGUACCGAAUCGGGGUUUUUUGGGGUUUUUUGGUUUUUUGGGGAAAGUAUUAUGUUACGCCGUUCGGAUCUG: -0.223
GUCCUGUGCUACACAUCGUAUGUACCGAAUCGGAAAAAGGGAAAAAGGGGAAAAAGGGAAAGUAUUAUGUUACGCCGUUCGGAUCUGCAC: 0.0225
AGUCCUGUGCUACACAUCGUAUGUACCGAAUCGGUUUUUGGGGUUUUUGGUUUUUGGAAAGUAUUAUGUUACGCCGUUCGGAUCUGCACU: -0.0893
